Measurements pooled from the literature.
Every numbered part comes from another study and shows a few of its results, in no order.

Study 1
Target: Histone acetyltransferase KAT6A, both winged helices, GST fusion (KAT6A, Homo sapiens, UniProt Q92794, residues 1-181)
Method: protein binding microarray
Form: double-stranded DNA, one strand shown
Sample: in vitro
Tested at: not given
Notes: 8-mer, flanks averaged, mean of 2 arrays, mostly near background
Baseline: not given
Direction: higher = stronger binding
Target sequence (chain): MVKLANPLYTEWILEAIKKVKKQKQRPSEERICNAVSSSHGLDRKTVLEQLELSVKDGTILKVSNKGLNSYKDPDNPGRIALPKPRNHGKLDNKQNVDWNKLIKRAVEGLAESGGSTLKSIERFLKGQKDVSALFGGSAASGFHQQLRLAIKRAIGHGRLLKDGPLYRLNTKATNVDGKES
| Sequence | E-score |
| --- | --- |
| CTCACCGC | 0.0816 |
| CCAATAGC | -0.118 |
| AGACTACA | -0.0862 |
| CATCACTA | -0.126 |
| GGTGGTGA | 0.01 |
| CCTCCGGC | 0.117 |
| AGTGGCAA | -0.144 |
| AGTACCTC | -0.144 |

Study 2
Cell line: HEK-293T/ACE2
Tested at: 10 µM
Time: 16 h
Baseline: vehicle
| Structure (SMILES) | viability |
| --- | --- |
| C[N+]12CCC(CC1)C(OC(=O)C(O)(c1ccccc1)c1ccccc1)C2 (centres unmarked) | 100% |
| Nc1nc2[nH]cc(CCc3ccc(C(=O)N[C@@H](CCC(=O)O)C(=O)O)cc3)c2c(=O)[nH]1 | 85.3% |
| Nc1ccc(S(=O)(=O)NC(=O)c2ccccc2)cc1 | 101% |
| C[C@]12C=CC(=O)C=C1CC[C@H]1[C@@H]3C[C@@H](O)[C@](O)(C(=O)CO)[C@@]3(C)C[C@H](O)[C@@]12F | 102% |
| Cc1cn([C@H]2C=C[C@@H](CO)O2)c(=O)[nH]c1=O | 100% |
| COc1cc(C)c(/C=C/C(C)=C/C=C/C(C)=C/C(=O)O)c(C)c1C | 98.3% |
| NC(=O)c1cccnc1 | 102% |
| CO[C@H]1C[C@@H]2CC[C@@H](C)[C@@](O)(O2)C(=O)C(=O)N2CCCC[C@H]2C(=O)O[C@H]([C@H](C)C[C@@H]2CC[C@@H](O)[C@H](OC)C2)CC(=O)[C@H](C)/C=C(\C)[C@@H](O)[C@@H](OC)C(=O)[C@H](C)C[C@H](C)/C=C/C=C/C=C/1C | 102% |
| CCc1nc(N)nc(N)c1-c1ccc(Cl)cc1 | 96.7% |
| CC[C@@H](CO)NCCN[C@@H](CC)CO | 100% |
| C/C(=C\C(=O)OCCCCCCCCC(=O)O)C[C@@H]1OC[C@H](C[C@@H]2O[C@H]2[C@@H](C)[C@H](C)O)[C@@H](O)[C@H]1O | 97.8% |

Study 3
Target: Replicase polyprotein 1ab, 3C-like proteinase (rep, Middle East respiratory syndrome-related coronavirus, UniProt K9N7C7)
Effect on: enzyme activity
Mode: inhibitor
Organism: MERS-CoV
Tested at: 10 µM
| SMILES | inhibition [%] |
| --- | --- |
| Nc1nnc(Sc2ncc([N+](=O)[O-])s2)s1 | 45 |
| O=C1C=CC(=O)C2=C1C1c3ccccc3C2c2ccccc21 | 45 |
| C=CC1=C(C)c2cc3[nH]c(cc4nc(cc5[nH]c(cc1n2)c(C)c5C=C)C(C)=C4CCC(=O)O)c(CCC(=O)O)c3C.[Fe+3] | 7 |
| CC(=O)OC[C@H]1O[C@@H]([S-])[C@H](OC(C)=O)[C@@H](OC(C)=O)[C@@H]1OC(C)=O.CCP(CC)CC.[Au+] | 27 |
| CC(=O)[O][Hg][c]1ccccc1 | 4 |
| CCC(C)SSc1ncc[nH]1 (centres unmarked) | 62.5 |

Study 4
Target: Replicase polyprotein 1ab, polymerase (rep, Severe acute respiratory syndrome coronavirus 2, UniProt P0DTD1)
Effect on: enzyme activity
Mode: inhibitor
Tested at: 20 µM
| Compound | inhibition [%] |
| --- | --- |
| CN(C)CCn1nnnc1SCC1=C(C(=O)O)N2C(=O)[C@@H](NC(=O)Cc3csc(N)n3)[C@H]2SC1 | -1.57 |
| CC(C)NCC(O)COc1ccc(COCCOC(C)C)cc1 (centres unmarked) | -3.64 |
| CC(C)NCCN(C(C)C)S(=O)(=O)c1ccc(Cl)cc1Cl | -4.19 |
| C=CC(N)CCC(=O)O (centres unmarked) | -2.07 |
| COc1ccc(CNCc2cccc3ccccc23)cc1 | 4.92 |
| CS(=O)(=O)c1ccc(C2=C(c3ccccc3)C(=O)OC2)cc1 | -1.53 |
| CC(C)(O)CS(=O)(=O)Nc1ccc2c(c1)CCN(C(=O)COc1cccnc1)C2 | -2.41 |
| CC(C)[C@H](O)C(=O)N[C@@H](C)C(=O)N[C@@H]1C(=O)N(C)CCc2ccccc21 | -5.79 |
| N=C(N)NC(=N)NCCc1ccccc1 | 25.4 |
| Nc1ncnc(Nc2ccc(Cl)cc2)n1 | 2.08 |
| O=C(Nc1cccnn1)N1CCC(=Cc2cccc(Oc3ccc(C(F)(F)F)cn3)c2)CC1 | -2.77 |
| COc1cc2nc(N(C)CCCNC(=O)C3CCCO3)nc(N)c2cc1OC (centres unmarked) | 2.98 |
| OCc1ccccc1O | -0.97 |
| N[C@@H](CC(=O)Nc1ccc(Oc2cc(F)c(F)cc2Br)cc1)C(=O)O | 7.76 |
| NCC(=O)N[C@@H](CCC(N)=O)C(=O)O | -4.74 |
| CC(SC(=O)c1cccs1)C(=O)NCC(=O)O (centres unmarked) | -2.96 |
| CO[C@@H](C)Cn1c(=O)n(C)c2cnc3ccc(-c4cncc(C(C)(C)O)c4)cc3c21 | 5.61 |
| O=c1oc2c(O)c(O)cc3c(=O)oc4c(O)c(O)cc1c4c23 | 1.67 |
| CCC(CC)(NC(=O)C(C)C)C(=O)N[C@@H](CCCN=C(N)N)C(=O)NC1(C(=O)NC(c2ccc(F)cc2)c2ccc(F)cc2)CCCC1 | 2.46 |
| CCN(CC)C(=O)/C(C#N)=C/c1cc(O)c(O)c([N+](=O)[O-])c1 | 3.57 |
| C[C@@]1(F)[C@H](O)[C@@H](CO)O[C@H]1n1ccc(N)nc1=O | 0.33 |
| CCN(CC)Cc1ccc2cc(COC(=O)Nc3ccc(C(=O)NO)cc3)ccc2c1 | -0.24 |
| CCOC(=O)Nc1ccc(NCc2ccc(F)cc2)nc1N | -2.61 |
| COc1ccc2c(c1)[C@]13CCCC[C@@H]1[C@H](C2)N(C)CC3 | 23.4 |
| Cc1nc(N)sc1-c1ccnc(Nc2ccc(N3CCOCC3)cc2)n1 | -8.64 |
